Experimental data pooled from the literature.
Each numbered part is a random draw from the data of one study; scales do not carry over between parts.
Sequence of UniProt P42336 (whole entry, unmodified, looked up): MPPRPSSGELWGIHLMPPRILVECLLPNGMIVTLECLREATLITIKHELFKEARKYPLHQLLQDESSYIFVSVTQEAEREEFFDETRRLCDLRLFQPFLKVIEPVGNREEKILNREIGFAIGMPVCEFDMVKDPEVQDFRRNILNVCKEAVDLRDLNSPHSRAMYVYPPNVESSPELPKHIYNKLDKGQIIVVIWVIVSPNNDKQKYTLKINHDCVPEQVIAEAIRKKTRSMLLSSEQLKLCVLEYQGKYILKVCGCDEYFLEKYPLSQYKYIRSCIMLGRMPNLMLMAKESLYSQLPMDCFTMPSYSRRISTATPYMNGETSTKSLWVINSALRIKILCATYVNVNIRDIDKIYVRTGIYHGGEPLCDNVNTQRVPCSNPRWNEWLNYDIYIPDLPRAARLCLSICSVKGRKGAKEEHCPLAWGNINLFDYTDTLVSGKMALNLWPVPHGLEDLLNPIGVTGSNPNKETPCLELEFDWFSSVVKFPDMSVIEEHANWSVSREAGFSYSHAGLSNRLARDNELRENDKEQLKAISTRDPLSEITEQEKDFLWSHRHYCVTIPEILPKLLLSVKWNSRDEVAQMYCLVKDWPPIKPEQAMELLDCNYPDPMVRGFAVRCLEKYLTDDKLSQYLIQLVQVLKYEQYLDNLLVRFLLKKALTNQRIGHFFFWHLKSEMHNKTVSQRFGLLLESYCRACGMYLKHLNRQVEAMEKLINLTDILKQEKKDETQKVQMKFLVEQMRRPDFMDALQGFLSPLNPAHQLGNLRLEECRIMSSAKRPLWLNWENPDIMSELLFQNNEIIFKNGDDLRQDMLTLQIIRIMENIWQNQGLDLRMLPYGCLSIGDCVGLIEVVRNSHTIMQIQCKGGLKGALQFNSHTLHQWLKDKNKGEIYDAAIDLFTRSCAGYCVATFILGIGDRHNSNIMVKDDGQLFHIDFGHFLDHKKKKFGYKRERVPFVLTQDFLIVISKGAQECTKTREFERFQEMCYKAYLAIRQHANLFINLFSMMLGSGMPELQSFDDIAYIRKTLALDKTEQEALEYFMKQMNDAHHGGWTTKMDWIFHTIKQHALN
Sequence of UniProt Q9Y6E0 (whole entry, looked up): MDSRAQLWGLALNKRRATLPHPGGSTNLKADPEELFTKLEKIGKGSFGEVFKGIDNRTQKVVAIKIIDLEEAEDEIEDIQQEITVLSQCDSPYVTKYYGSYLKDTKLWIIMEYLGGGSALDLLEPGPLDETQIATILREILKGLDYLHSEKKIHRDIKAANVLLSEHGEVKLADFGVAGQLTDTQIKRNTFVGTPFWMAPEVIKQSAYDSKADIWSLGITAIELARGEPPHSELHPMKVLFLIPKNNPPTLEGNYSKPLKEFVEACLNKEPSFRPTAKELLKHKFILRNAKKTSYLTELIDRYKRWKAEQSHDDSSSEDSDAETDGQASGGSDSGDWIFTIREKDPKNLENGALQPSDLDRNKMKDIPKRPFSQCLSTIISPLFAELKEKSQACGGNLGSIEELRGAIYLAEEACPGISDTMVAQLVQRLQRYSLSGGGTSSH
Sequence of UniProt P27361 (whole entry, looked up): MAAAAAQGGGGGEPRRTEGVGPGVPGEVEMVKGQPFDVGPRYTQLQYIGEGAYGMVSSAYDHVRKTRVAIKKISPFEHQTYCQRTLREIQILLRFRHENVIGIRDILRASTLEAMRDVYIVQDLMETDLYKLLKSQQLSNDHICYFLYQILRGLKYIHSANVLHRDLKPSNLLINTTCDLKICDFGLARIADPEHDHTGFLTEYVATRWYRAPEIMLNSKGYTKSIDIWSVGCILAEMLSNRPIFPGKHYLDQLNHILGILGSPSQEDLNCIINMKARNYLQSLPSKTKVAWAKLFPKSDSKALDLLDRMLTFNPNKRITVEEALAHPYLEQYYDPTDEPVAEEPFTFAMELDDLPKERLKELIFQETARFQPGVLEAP

Study 1 — method: competition with immobilised ligand; tested at: 1 µM
SMILES: COc1ccc2cc(OCC3(C(=O)O)CN(C(=O)c4ccc(F)cc4)C3)ccc2c1
target	test	remaining binding
5'-AMP-activated protein kinase catalytic subunit alpha-2 (PRKAA2, Homo sapiens, UniProt P54646)	binding	28%
Tyrosine-protein kinase Tec (TEC, Homo sapiens, UniProt P42680)	binding	100%
Ephrin type-B receptor 6 (EPHB6, Homo sapiens, UniProt O15197)	cell-free assay	100%
Megakaryocyte-associated tyrosine-protein kinase (MATK, Homo sapiens, UniProt P42679)	cell-free assay	100%
Ephrin type-B receptor 3 (EPHB3, Homo sapiens, UniProt P54753)	cell-free assay	99%
Death-associated protein kinase 1 (DAPK1, Homo sapiens, UniProt P53355)	cell-free assay	100%
Receptor-type tyrosine-protein kinase FLT3 (FLT3, Homo sapiens, UniProt P36888, N841I)	cell-free assay	76%
Calcium/calmodulin-dependent protein kinase type 1B (PNCK, Homo sapiens, UniProt Q6P2M8)	cell-free assay	100%
Glycogen synthase kinase-3 alpha (GSK3A, Homo sapiens, UniProt P49840)	cell-free assay	96%
Casein kinase II subunit alpha (CSNK2A1, Homo sapiens, UniProt P68400)	cell-free assay	100%
Phosphatidylinositol 4,5-bisphosphate 3-kinase catalytic subunit alpha isoform (PIK3CA, Homo sapiens, UniProt P42336, E545K)	cell-free assay	100%
Cyclin-dependent kinase 4 (CDK4, Homo sapiens, UniProt P11802)	cell-free assay	90%
Cyclin-dependent kinase 5 (CDK5, Homo sapiens, UniProt Q00535)	cell-free assay	100%
Serine/threonine-protein kinase 24 (STK24, Homo sapiens, UniProt Q9Y6E0)	cell-free assay	85%
cAMP-dependent protein kinase catalytic subunit beta (PRKACB, Homo sapiens, UniProt P22694)	cell-free assay	100%
Beta-adrenergic receptor kinase 1 (GRK2, Homo sapiens, UniProt P25098)	cell-free assay	72%
Tyrosine-protein kinase ABL1, non-phosphorylated (ABL1, Homo sapiens, UniProt P00519, T315I)	cell-free assay	100%
Mitogen-activated protein kinase 6 (MAPK6, Homo sapiens, UniProt Q16659)	cell-free assay	88%
ALK tyrosine kinase receptor (ALK, Homo sapiens, UniProt Q9UM73)	cell-free assay	79%
Vascular endothelial growth factor receptor 3 (FLT4, Homo sapiens, UniProt P35916)	cell-free assay	75%
Protein-tyrosine kinase 2-beta (PTK2B, Homo sapiens, UniProt Q14289)	cell-free assay	100%
Insulin-like growth factor 1 receptor (IGF1R, Homo sapiens, UniProt P08069)	cell-free assay	100%
Membrane-associated tyrosine- and threonine-specific cdc2-inhibitory kinase (PKMYT1, Homo sapiens, UniProt Q99640)	cell-free assay	100%
Phosphatidylinositol 4-kinase beta (PI4KB, Homo sapiens, UniProt Q9UBF8)	cell-free assay	100%
Mitogen-activated protein kinase 3 (MAPK3, Homo sapiens, UniProt P27361)	cell-free assay	100%

Study 2 — observed: enzyme activity; action: inhibitor; tested at: 1 µM
SMILES: CO[C@@H]1[C@H](N(C)C(=O)c2ccccc2)C[C@H]2O[C@]1(C)n1c3ccccc3c3c4c(c5c6ccccc6n2c5c31)C(=O)NC4
target	inhibition [%]
Cyclin-dependent kinase-like 5 (CDKL5, Homo sapiens, UniProt O76039)	11
Phosphatidylinositol 4,5-bisphosphate 3-kinase catalytic subunit alpha isoform (PIK3CA, Homo sapiens, UniProt P42336, H1047Y)	31
Serine/threonine-protein kinase PLK1 (PLK1, Homo sapiens, UniProt P53350)	0
STE20-like serine/threonine-protein kinase (SLK, Homo sapiens, UniProt Q9H2G2)	33
Serine/threonine-protein kinase pim-1 (PIM1, Homo sapiens, UniProt P11309)	35
1-phosphatidylinositol 3-phosphate 5-kinase (PIKFYVE, Homo sapiens, UniProt Q9Y2I7)	0
Death-associated protein kinase 3 (DAPK3, Homo sapiens, UniProt O43293)	45
BMP-2-inducible protein kinase (BMP2K, Homo sapiens, UniProt Q9NSY1)	100

Study 3 — species: mouse; matrix: microsomes or S9; tested at: 2 µM; time: 0.5 h
SMILES	remaining compound [%]
CCC(C)Nc1c(C(C)=O)c(=O)[nH]c2c(C(=O)OC)scc12 (stereo not drawn)	3.07
Cc1ccc(C2c3cccn3-c3sc4c(c3CN2C(=O)Nc2ccc(F)cc2F)CCCC4)cc1 (stereo not drawn)	29.2
CCS(=O)(=O)Nc1ccc(C(=O)OC(C)C)cc1	< 1
Cc1ccccc1-c1nc2ccccc2cc1Cn1nc(-c2ccncc2)c2cnc(N)nc21	9.35
O=C(NC1CCOCC1)N1CCC(CCc2ccc(O)cc2)CC1	93.3
CCCc1ncc(C(O)c2ccc(OCC)cc2)n1C (stereo not drawn)	0.0193
COC(=O)c1ccc(Cn2cc(-c3nc(-c4cnccn4)no3)ccc2=O)o1	46
O=c1[nH]cccc1-c1nc(-c2cccc(Br)c2)no1	11.3
Nc1noc2cc(OCCCCCOc3ccc4c(N)noc4c3)ccc12	70.4
COC(=O)c1cc(Cl)ccc1C1CCN(CC(=O)N2CCc3ccccc32)CC1	1.16

Study 4 — observed: enzyme activity; action: inhibitor; tested at: 77 µM; baseline: untreated
Target: DNA polymerase theta, ATPase domain (POLQ, Homo sapiens, UniProt O75417)
Sequence of UniProt O75417 (whole entry, unmodified, looked up): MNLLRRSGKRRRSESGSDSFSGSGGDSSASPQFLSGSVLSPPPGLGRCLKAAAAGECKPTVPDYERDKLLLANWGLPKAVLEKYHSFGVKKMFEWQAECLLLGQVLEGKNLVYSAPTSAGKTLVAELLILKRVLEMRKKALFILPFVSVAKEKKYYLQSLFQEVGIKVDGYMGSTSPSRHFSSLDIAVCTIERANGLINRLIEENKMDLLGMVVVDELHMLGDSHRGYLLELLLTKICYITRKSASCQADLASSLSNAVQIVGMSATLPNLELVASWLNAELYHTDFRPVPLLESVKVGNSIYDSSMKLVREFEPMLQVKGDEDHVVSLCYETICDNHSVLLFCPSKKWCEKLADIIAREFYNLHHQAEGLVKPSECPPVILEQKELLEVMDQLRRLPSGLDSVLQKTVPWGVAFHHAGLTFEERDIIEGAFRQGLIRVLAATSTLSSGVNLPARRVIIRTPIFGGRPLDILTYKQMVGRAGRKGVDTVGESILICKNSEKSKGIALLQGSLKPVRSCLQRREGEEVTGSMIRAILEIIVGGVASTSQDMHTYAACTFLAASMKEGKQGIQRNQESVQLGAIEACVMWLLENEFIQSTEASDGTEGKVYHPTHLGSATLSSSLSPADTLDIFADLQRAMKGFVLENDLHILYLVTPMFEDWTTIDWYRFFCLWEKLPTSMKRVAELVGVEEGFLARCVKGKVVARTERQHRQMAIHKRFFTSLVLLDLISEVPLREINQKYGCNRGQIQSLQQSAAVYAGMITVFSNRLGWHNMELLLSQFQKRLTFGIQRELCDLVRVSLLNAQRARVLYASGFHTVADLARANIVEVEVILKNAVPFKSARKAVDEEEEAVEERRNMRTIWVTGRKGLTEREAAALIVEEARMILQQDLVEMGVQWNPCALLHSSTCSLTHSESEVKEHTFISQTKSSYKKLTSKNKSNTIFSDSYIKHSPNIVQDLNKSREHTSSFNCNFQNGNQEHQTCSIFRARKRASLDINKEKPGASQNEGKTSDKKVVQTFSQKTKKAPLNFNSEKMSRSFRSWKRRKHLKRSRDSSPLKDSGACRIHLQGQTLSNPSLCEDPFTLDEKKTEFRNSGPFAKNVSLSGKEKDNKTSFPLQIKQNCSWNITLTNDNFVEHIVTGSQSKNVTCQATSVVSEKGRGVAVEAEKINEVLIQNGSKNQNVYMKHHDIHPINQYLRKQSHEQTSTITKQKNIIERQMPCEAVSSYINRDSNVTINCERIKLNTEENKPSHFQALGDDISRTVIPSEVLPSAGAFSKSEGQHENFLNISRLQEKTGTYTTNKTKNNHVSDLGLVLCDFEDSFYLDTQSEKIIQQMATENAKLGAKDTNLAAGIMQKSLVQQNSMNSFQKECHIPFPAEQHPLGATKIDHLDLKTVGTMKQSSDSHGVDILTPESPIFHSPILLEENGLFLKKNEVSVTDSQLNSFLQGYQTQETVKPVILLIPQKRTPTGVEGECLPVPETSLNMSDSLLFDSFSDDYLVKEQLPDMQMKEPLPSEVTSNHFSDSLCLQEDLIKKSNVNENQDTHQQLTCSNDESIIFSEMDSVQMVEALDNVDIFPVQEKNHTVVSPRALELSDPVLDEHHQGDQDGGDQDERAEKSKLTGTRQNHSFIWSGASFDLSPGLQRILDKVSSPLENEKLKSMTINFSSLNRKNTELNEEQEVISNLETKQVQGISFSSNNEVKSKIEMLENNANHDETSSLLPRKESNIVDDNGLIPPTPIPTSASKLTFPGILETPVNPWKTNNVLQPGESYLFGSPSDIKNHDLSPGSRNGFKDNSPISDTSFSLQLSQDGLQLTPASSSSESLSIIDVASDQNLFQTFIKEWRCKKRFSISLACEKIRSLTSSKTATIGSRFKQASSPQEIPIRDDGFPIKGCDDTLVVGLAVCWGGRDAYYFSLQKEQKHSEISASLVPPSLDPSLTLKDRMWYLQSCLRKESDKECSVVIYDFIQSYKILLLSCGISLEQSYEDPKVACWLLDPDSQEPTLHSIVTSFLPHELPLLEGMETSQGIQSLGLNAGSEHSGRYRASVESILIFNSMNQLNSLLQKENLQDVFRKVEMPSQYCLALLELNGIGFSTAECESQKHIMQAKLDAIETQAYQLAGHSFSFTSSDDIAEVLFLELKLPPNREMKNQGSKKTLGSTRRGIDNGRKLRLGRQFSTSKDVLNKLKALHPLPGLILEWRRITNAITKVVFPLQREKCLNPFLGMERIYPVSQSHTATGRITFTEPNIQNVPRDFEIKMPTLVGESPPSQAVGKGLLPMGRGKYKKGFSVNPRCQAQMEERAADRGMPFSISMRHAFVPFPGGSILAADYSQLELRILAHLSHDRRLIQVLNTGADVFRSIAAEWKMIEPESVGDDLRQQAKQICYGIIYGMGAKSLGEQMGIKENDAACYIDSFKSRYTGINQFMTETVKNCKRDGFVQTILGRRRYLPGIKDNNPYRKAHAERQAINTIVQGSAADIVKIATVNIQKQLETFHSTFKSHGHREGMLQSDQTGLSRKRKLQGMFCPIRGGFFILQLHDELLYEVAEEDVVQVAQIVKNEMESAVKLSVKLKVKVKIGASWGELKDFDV
SMILES	remaining activity [%]
C[N+]1(C)C2CC(OC(=O)[C@H](CO)c3ccccc3)CC1C1OC12 (single isomer, unassigned; (-))	99.2
CC[C@H](C)[C@H](N)C1=N[C@H](C(=O)N[C@@H](CC(C)C)C(=O)N[C@H](CCC(=O)O)C(=O)N[C@H](C(=O)N[C@H]2CCCCNC(=O)[C@H](CC(N)=O)NC(=O)[C@@H](CC(=O)O)NC(=O)[C@H](Cc3cnc[nH]3)NC(=O)[C@@H](Cc3ccccc3)NC(=O)[C@H]([C@@H](C)CC)NC(=O)[C@@H](CCCN)NC2=O)[C@@H](C)CC)CS1	102
Cc1ccnc2c1NC(=O)c1cccnc1N2C1CC1	97.2
O=C(O[C@H]1CN2CCC1CC2)N1CCc2ccccc2[C@@H]1c1ccccc1	98
O=C(O)C=Cc1cc(Br)c(Br)c(Br)c1Br	102
CC1=NN(c2ccccc2)C(=O)C1	98.9
O=C1CCC(c2ccc(-n3ccnc3)cc2)=NN1	99.6
COC(=O)C1=C(C)NC(C)=C([N+](=O)[O-])C1c1ccccc1C(F)(F)F (stereo not drawn)	101

Study 5 — observed: enzyme activity; action: inhibitor; tested at: 10 µM
Target: Calcium/calmodulin-dependent protein kinase type II subunit alpha (CAMK2A, Homo sapiens, UniProt Q9UQM7)
Sequence of UniProt Q9UQM7 (whole entry, looked up): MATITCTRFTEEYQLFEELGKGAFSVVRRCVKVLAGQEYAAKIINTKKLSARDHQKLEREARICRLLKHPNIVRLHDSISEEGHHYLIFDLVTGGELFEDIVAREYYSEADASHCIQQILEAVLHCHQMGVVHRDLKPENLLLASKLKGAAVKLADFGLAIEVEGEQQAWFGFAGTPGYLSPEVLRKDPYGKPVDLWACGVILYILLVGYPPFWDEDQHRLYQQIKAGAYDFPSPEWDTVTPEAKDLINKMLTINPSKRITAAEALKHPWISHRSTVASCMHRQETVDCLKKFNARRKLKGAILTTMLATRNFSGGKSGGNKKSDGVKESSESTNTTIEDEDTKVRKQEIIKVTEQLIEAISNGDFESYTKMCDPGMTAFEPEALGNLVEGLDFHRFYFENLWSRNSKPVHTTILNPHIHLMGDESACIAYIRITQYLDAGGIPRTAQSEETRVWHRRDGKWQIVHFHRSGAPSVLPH
Compound	inhibition [%]
C#CCN[C@H]1CCc2ccccc21	-4
COC(=O)C1=CO[C@@H](O[C@@H]2O[C@H](CO)[C@@H](O)[C@H](O)[C@H]2O)[C@@H]2[C@@H](C)CC(=O)[C@]12O	25
O=C(O)C(O)C(O)C(=O)O (stereo not drawn)	0.01
CCN(C(=O)c1c(O)c2c(Cl)cccc2n(C)c1=O)c1ccccc1	-7
C=CCN1CCc2nc(N)sc2CC1	-10
N#CC(c1ccc(Cl)cc1)c1c(Cl)cc(-n2ncc(=O)[nH]c2=O)cc1Cl (stereo not drawn)	-19

Some of these lines once more (study 2):
target	inhibition [%]
Cyclin-dependent kinase-like 5 (CDKL5, Homo sapiens, UniProt O76039)	11
Serine/threonine-protein kinase pim-1 (PIM1, Homo sapiens, UniProt P11309)	35
1-phosphatidylinositol 3-phosphate 5-kinase (PIKFYVE, Homo sapiens, UniProt Q9Y2I7)	0
Phosphatidylinositol 4,5-bisphosphate 3-kinase catalytic subunit alpha isoform (PIK3CA, Homo sapiens, UniProt P42336, H1047Y)	31
Serine/threonine-protein kinase PLK1 (PLK1, Homo sapiens, UniProt P53350)	0
BMP-2-inducible protein kinase (BMP2K, Homo sapiens, UniProt Q9NSY1)	100
Death-associated protein kinase 3 (DAPK3, Homo sapiens, UniProt O43293)	45
STE20-like serine/threonine-protein kinase (SLK, Homo sapiens, UniProt Q9H2G2)	33
